Measurements of several laboratories.
A part holds a random share of what one study measured.

Block 1 — technique: universal PBM; form: double-stranded DNA, one strand shown; medium: in vitro; concentration: 600 nM; direction: higher = stronger binding
Target: Sal-like protein 4, full length isoform A (SALL4, Homo sapiens, UniProt Q9UJQ4, residues 1-1053)
UniProt Q9UJQ4, sequence (whole entry, looked up): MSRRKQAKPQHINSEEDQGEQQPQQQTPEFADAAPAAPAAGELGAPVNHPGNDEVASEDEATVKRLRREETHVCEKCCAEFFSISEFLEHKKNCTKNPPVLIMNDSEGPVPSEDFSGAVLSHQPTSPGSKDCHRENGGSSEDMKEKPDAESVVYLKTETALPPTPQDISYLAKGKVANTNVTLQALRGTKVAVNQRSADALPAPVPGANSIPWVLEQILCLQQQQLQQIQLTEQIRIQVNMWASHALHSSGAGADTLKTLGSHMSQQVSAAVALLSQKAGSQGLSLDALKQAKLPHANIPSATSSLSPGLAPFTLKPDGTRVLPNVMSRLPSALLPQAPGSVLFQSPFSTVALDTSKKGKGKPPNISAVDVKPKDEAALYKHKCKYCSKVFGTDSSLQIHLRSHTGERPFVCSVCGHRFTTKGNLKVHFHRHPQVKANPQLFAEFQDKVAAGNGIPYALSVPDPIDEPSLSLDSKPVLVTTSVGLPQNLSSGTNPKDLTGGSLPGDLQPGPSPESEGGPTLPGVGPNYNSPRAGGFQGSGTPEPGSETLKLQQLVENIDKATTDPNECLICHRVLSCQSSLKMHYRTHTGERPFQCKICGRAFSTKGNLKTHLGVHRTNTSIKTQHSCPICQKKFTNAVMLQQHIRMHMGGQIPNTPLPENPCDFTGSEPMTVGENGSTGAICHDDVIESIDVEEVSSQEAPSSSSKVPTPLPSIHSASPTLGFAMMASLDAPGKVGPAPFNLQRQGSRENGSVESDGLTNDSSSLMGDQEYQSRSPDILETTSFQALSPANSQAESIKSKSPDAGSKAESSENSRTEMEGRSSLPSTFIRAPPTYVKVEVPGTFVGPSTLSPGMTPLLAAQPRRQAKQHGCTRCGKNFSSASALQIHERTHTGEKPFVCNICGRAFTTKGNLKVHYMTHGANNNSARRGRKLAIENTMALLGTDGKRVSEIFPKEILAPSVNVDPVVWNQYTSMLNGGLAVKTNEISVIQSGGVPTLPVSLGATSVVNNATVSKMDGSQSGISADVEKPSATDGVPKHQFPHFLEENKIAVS
Setting: 8-mer, flanks averaged, mean of replicates
Oligonucleotide | E-score
ATCTAGTG | 0.13
ATGCCTCG | -0.0328
AGGAATGC | -0.0402
ATGTTTGG | 0.197

Block 2 — technique: protein binding microarray; form: double-stranded DNA, one strand shown; medium: in vitro; concentration: not given; relative to: not given; direction: higher = stronger binding
Target: Histone acetyltransferase KAT6A, both winged helices, GST fusion (KAT6A, Homo sapiens, UniProt Q92794, residues 1-181)
Setting: 8-mer, flanks averaged, mean of 2 arrays, mostly near background
Target sequence (chain): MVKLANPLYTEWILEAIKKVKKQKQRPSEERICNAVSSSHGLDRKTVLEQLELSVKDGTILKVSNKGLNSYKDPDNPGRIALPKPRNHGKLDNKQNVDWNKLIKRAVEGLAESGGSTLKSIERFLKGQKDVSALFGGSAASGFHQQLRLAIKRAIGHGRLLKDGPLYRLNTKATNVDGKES
Oligonucleotide | E-score
AAAATGTC | 0.0656
CGCAAAAC | 0.275
GAACATCC | 0.139
CTGGCCTC | -0.158

Block 3 — technique: RNA Bind-n-Seq; form: RNA; medium: in vitro; concentration: not given; relative to: input RNA pool; direction: higher = stronger binding
Target: RING finger protein unkempt homolog, zinc fingers 1-6, GST-SBP tag (UNK, Homo sapiens, UniProt Q9C0B0, residues 30-357)
UniProt Q9C0B0, sequence (30-357, looked up): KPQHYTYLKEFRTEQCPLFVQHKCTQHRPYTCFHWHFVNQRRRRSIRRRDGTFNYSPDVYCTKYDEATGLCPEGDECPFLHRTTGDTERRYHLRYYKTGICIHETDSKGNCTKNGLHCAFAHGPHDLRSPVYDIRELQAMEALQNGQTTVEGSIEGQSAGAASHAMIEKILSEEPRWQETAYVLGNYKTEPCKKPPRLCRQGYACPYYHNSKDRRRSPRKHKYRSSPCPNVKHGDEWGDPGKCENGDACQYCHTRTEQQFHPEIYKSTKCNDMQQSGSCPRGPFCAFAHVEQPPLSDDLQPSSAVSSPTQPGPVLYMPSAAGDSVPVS
Setting: RNA with constant flanks, human and mouse sites, ends assumed
Oligonucleotide | bound/input enrichment [ratio]
GGGAGUUCUACAGUCCGACGAUCGGAGGGCCGCCGGCUGUGUUGCUGCCGCGGGCGGAGGAGGCGCUGCCGGUUCUCUGAGUUUCACCAGUAAUGCCACUCAGUUGCCAAUAUCAAGCAAGCGCAUAUAAGACACUUGUAAUCCAACAGAGGAUUGAGCAUCA | 0.235
GGGAGUUCUACAGUCCGACGAUCAUAAAAUGAAACUAGGGCUGAGCUAGUUAGCCCUCACUAGCCAAACUGAAACUCUAUGCAACAUUAAAAGAAGAGAUCCAUCAUGUAGCUUGUGACACUUUUAUUUUAUUAGUCACCGGGCAACAGAGGAUUGAGCAUCA | 0.345
GGGAGUUCUACAGUCCGACGAUCCAGAGGACUAUCCAACCUCCUAGGAAUAGGUGAAGGGAAGUGACGGACUGUAACUUGGAAGUCAGAAAUGGAAGAAUACAGUUGUCUAAGCACCAGGUCUUCACGACUCACAGCUGGAAGCAACAGAGGAUUGAGCAUCA | 0.376

Further values, each from its own experiment
Molecule | target | assay | system | conditions | how to read | measurement | value
PhoQ, residues 284 288 289 292 302 303 AGCYAI | PhoP, residues 12 14 15 18 19 TPWLV (Escherichia coli, UniProt P23836) | Sort-seq, item: YFP reporter | E. coli | PhoQ-PhoP variant library, together with: 10 µM Mg2+ | relative to: high Mg2+ state, higher = stronger signaling | fold induction | 0.782

Repeated from above (further values, each from its own experiment):
Molecule | target | assay | system | conditions | how to read | measurement | value
PhoQ, residues 284 288 289 292 302 303 AGCYAI | PhoP, residues 12 14 15 18 19 TPWLV (Escherichia coli, UniProt P23836) | Sort-seq, item: YFP reporter | E. coli | PhoQ-PhoP variant library, together with: 10 µM Mg2+ | relative to: high Mg2+ state, higher = stronger signaling | fold induction | 0.782
